Measurements collected from several papers.
Compare with care: the assays were run in different laboratories. ± marks the error that the study gave.
CYP3A4: Cytochrome P450 3A4 (CYP3A4, Homo sapiens, UniProt P08684)
Chain of UniProt P08684 (whole entry, unmodified, looked up): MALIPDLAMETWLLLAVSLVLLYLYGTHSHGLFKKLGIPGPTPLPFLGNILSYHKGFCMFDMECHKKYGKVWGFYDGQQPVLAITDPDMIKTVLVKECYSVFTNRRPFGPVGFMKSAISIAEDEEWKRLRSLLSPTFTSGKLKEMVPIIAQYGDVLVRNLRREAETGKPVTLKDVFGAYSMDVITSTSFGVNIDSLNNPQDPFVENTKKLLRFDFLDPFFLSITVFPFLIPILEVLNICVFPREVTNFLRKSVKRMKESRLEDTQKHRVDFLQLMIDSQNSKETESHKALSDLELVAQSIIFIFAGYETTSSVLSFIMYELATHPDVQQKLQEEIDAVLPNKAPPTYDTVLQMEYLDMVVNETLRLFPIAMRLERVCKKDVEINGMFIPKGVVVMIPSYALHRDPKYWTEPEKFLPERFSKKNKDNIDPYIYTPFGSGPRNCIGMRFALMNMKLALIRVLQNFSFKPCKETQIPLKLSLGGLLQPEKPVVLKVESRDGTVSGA

The IC50 of `CC1=N[C@]2(C(=O)CO)[C@@H](C[C@H]3[C@@H]4C[C@@H](O)C5=CC(=O)C=C[C@]5(C)[C@H]4[C@@H](O)C[C@@]32C)O1` is reported as > 50 µM (CYP3A4; enzyme activity, inhibitor; pooled human liver microsomes; 30 min preincubation without NADPH, added: midazolam substrate).
For `OCc1ncc2n1-c1ccc(Cl)cc1C(c1ccccc1F)=NC2`, the AUC ratio was 0.335 (CYP3A4; human; 25 mg once daily, day 1, added: midazolam 7.5 mg; reference: compound over midazolam).
`C=CC[C@]1(O)CC[C@H]2[C@@H]3CCC4=CC(=O)CC[C@]4(C)[C@H]3CC[C@@]21C` has an IC50 of 2.8 µM (CYP3A4; enzyme activity, inhibitor).
The Kd of `C[C@]12CC[C@H]3[C@@H]([C@H](C/C=C/Cn4cc([C@]5(O)CC[C@H]6[C@@H]7CCc8cc(O)ccc8[C@H]7CC[C@@]65C)nn4)CC4=CC(=O)CC[C@@]43C)[C@@H]1CC[C@@H]2O` is reported as 2 ± 0.1 µM (CYP3A4; binding, spectral titration; pH 7.4, room temperature).
`OCCCCc1ccc2ccc3cccc4ccc1c2c34` gave a Kd of 7 ± 0.05 µM (Cytochrome P450 3A4 (CYP3A4, Homo sapiens, UniProt P08684, F213W); FRET titration by dilution; pH 7.4, F213W mutant, excess substrate, enzyme:substrate 1:5, added: HPCD 0.6 mg/mL).
The IC50 of `O=C(O)C(F)(F)C(F)(F)C(F)(F)C(F)(F)C(F)(F)F` is reported as > 100 µM (CYP3A4; enzyme activity, inhibitor; Supersomes, added: 7-BFC substrate).
With `C[C@]12CCC(=O)C[C@@H]1CC[C@@H]1[C@@H]2CC[C@@]2(C)[C@H]1CC[C@@]2(O)C/C=C/C[C@]1(O)CC[C@H]2[C@@H]3CC[C@H]4CC(=O)CC[C@]4(C)[C@H]3CC[C@@]21C` the IC50 was 12 µM (CYP3A4; enzyme activity, inhibitor).
For `Cc1ncc2n1-c1ccc(Cl)cc1C(c1ccccc1F)=NC2`, the AUC(0-inf) was 32 ± 8.3 ng·h/mL (CYP3A4; healthy female humans, plasma; oral, dose not given, day 1, probe cocktail alone).
The Kd of `C[C@]12CCC(=O)C=C1CC[C@@H]1[C@@H]2CC[C@@]2(C)[C@H]1CC[C@@]2(O)C/C=C/C[C@]1(O)CC[C@H]2[C@@H]3CCC4=CC(=O)CC[C@]4(C)[C@H]3CC[C@@]21C` is reported as 0.24 µM (CYP3A4; binding, absorbance; pH 7.4).
`COc1cc(/C=C/c2ccc(O)cc2)cc(OC)c1` gave an IC50 of > 100 µM (CYP3A4; enzyme activity, inhibitor; human, liver microsomes; 10 min, pH 7.4, midazolam probe).
`Cc1ncc2n1-c1ccc(Cl)cc1C(c1ccccc1F)=NC2` gave a kfast of 0.19 ± 0.03 s⁻¹ (CYP3A4; ligand, stopped flow; 40 µM, pH 7.4, opt-WT variant).

For quick reference, copied from above:
With `C[C@]12CCC(=O)C[C@@H]1CC[C@@H]1[C@@H]2CC[C@@]2(C)[C@H]1CC[C@@]2(O)C/C=C/C[C@]1(O)CC[C@H]2[C@@H]3CC[C@H]4CC(=O)CC[C@]4(C)[C@H]3CC[C@@]21C` the IC50 was 12 µM (CYP3A4; enzyme activity, inhibitor).
